Published values pooled from the literature.
Each line is one published result; not all experiments were run side by side. “And” joins repeats or separate records; there may be more than shown. ± marks the error that the study gave.
rep main protease: Replicase polyprotein 1ab, main protease (rep, Severe acute respiratory syndrome coronavirus 2, UniProt P0DTD1)

Molecule | tested on | assay | system | setting | endpoint | result
O=C(CSc1nc2ccccc2c(=O)[nH]1)Nc1ccc(C(=O)O)cc1 | SARS-CoV-2 | viral cytopathic effect | Vero E6, NRC-03-nhCoV |  | IC50 | 79.2 µM
COc1cc(-n2c(=S)[nH]c3ccccc3c2=O)c(Cl)cc1Cl | SARS-CoV-2 | viral cytopathic effect | Vero E6 | 3 days | IC50 | ~0.832 µM
O=c1c2ccccc2[se]n1-c1ccccc1 | SARS-CoV-2 |  |  |  | IC50 | 24.6 µM
O=C(CSc1nc2ccccc2c(=O)[nH]1)NNC(=O)c1ccc(Cl)cc1 | SARS-CoV-2 | viral cytopathic effect | Vero E6, NRC-03-nhCoV |  | IC50 | 74.3 µM
CCN(CC)CCNC(=O)c1ccc(N)cc1 | SARS-CoV-2 | viral replication | Huh-7 |  | IC50 | > 2 µM
CN(C)CCCN1c2ccccc2Sc2ccc(Cl)cc21 | SARS-CoV-2 | viral replication, anti-nucleoprotein immunostaining | Vero E6 |  | IC50 | > 10 µM
O=C(CSc1nc2ccccc2c(=O)[nH]1)NNC(=O)c1ccccc1Cl | SARS-CoV-2 | viral cytopathic effect | Vero E6, NRC-03-nhCoV |  | IC50 | 458 µM
C[C@@H]1O[C@@H](Oc2ccc(CN=C=S)cc2)[C@H](O)[C@H](O)[C@H]1O | rep main protease | reporter gene (mKate2), inhibitor |  | 20 µM | inhibition | -0.522%
mycosubtilin | SARS-CoV-2 | viral replication | Vero | 24 h | IC50 | 2.8 ± 0.4 µg/mL
CC(C)C[C@H](NC(=O)[C@H](CCc1ccccc1)NC(=O)CN1CCOCC1)C(=O)N[C@@H](Cc1ccccc1)C(=O)N[C@@H](CC(C)C)C(=O)[C@@]1(C)CO1 | rep main protease | reporter gene (Gaussia luciferase), inhibitor |  | 20 µM | inhibition | -5.27%
Cc1nccn1CC1CCc2c(c3ccccc3n2C)C1=O (stereo not shown) | SARS-CoV-2 | viral replication | A549 expressing ACE2 | inactive set pIC50 4 | IC50 | > 10 µM
O=C(O)c1ccc2nc(-c3cc(Cl)cc(Cl)c3)oc2c1 | SARS-CoV-2 | viral replication | Huh-7 |  | IC50 | > 2 µM
ginsenoside Rb1 | SARS-CoV-2 | viral cytopathic effect | Vero E6 cells | 3 days | IC50 | ~1.4 µM
Cc1c(-c2ccccc2)oc2c(C(=O)OCCN3CCCCC3)cccc2c1=O | SARS-CoV-2 | viral replication, RT-qPCR | A549 expressing ACE2 |  | IC50 | > 10 µM
COc1ccccc1C(=O)NNC(=O)CSc1nc2ccccc2c(=O)[nH]1 | SARS-CoV-2 | viral cytopathic effect | Vero E6, NRC-03-nhCoV |  | IC50 | 259 µM
Cc1cccc(NC(=O)C[S+]([O-])c2nc(-c3ccccc3)cn2-c2ccc(Cl)cc2)c1C (racemic) | SARS-CoV-2 | viral replication | Vero C1008, Delta B.1.617.2 |  | IC50 | 4.49 µM
CCCN(CCC)CCc1ccc(OC)c(OCCc2ccccc2)c1 | SARS-CoV-2 | viral replication, anti-NP immunostaining | Vero E6 |  | IC50 | 4.07 µM
CC[C@H](C)[C@H](NC(=O)[C@H](CC(C)C)NC(=O)[C@H](Cc1c[nH]c2ccccc12)NC(=O)[C@H](CCC(N)=O)NC(=O)[C@@H](NC(=O)[C@H](Cc1ccccc1)NC(=O)[C@H](C)NC(=O)[C@H](CCCCNC(=O)COCCOCCNC(=O)COCCOCCNC(=O)CC[C@H](NC(=O)CCCCCCCCCCCCCCCCCCC(=O)O)C(=O)O)NC(=O)[C@H](CCC(N)=O)NC(=O)[C@H](C)NC(=O)[C@@H](NC(=O)[C@H](CCCCN)NC(=O)[C@H](CC(=O)O)NC(=O)[C@H](CC(C)C)NC(=O)C(C)(C)NC(=O)[C@@H](NC(=O)[C@H](CO)NC(=O)[C@H](Cc1ccc(O)cc1)NC(=O)[C@H](CC(=O)O)NC(=O)[C@H](CO)NC(=O)[C@@H](NC(=O)[C@H](Cc1ccccc1)NC(=O)[C@@H](NC(=O)CNC(=O)[C@H](CCC(=O)O)NC(=O)C(C)(C)NC(=O)[C@@H](N)Cc1ccc(O)cc1)[C@@H](C)O)[C@@H](C)O)[C@@H](C)CC)[C@@H](C)CC)C(C)C)C(=O)N[C@@H](C)C(=O)NCC(=O)NCC(=O)N1CCC[C@H]1C(=O)N[C@@H](CO)C(=O)N[C@@H](CO)C(=O)NCC(=O)N[C@@H](C)C(=O)N1CCC[C@H]1C(=O)N1CCC[C@H]1C(=O)N1CCC[C@H]1C(=O)N[C@@H](CO)C(N)=O |  |  | healthy subjects, single ascending dose | 0.25 mg, day 29 | serum amylase | 70.3 ± 11.5 U/L
COc1ccc2c(O[C@@H]3C[C@H]4C(=O)N[C@]5(C(=O)NS(=O)(=O)C6CC6)C[C@H]5/C=C\CCCCN(C)C(=O)[C@@H]4C3)cc(-c3nc(C(C)C)cs3)nc2c1C | SARS-CoV-2 | viral replication, nucleoprotein immunofluorescence | Vero E6 |  | IC50 | 4.2 µM
O=C(CSc1nc2ccccc2c(=O)[nH]1)NNC(=O)c1ccccc1 | SARS-CoV-2 | viral cytopathic effect | Vero E6, NRC-03-nhCoV |  | IC50 | 318 µM
CN(C)CC[C@@H](c1ccc(Cl)cc1)c1ccccn1 | SARS-CoV-2 | viral replication | A549 expressing ACE2 | inactive set pIC50 4 | IC50 | > 10 µM
CCOC(=O)/C=C/[C@H](C[C@@H]1CCNC1=O)NC(=O)[C@@H](CC(=O)[C@@H](NC(=O)c1cc(C)on1)C(C)C)Cc1ccc(F)cc1 | SARS-CoV-2 | viral replication | Vero C1008 | 48 h | IC50 | 34.1 µM

Molecule | tested on | assay | system | setting | endpoint | result
C=C[C@@H]1C[C@]1(NC(=O)[C@@H]1C[C@@H](Oc2ncc(OC)c3ccc(Cl)cc23)CN1C(=O)[C@@H](NC(=O)OC(C)(C)C)C(C)(C)C)C(=O)NS(=O)(=O)C1CC1 | SARS-CoV-2 | viral replication, nucleoprotein immunofluorescence | Vero E6 |  | IC50 | 15 µM
CN1C(=O)OC(C)(C)C1=O | SARS-CoV-2 | viral replication | Huh-7 |  | IC50 | > 2 µM
Cn1cnc(Cn2c(=O)[nH]/c(=N\c3cc4cn(C)nc4cc3Cl)n(Cc3cc(F)c(F)cc3F)c2=O)n1 |  |  | human, all renal function groups | oral, 375 mg | anaemia TEAE, Severe severity | 0%
COc1cc2c(cc1OC)CN(CCc1ccc(NC(=O)c3cccc4c(=O)c5cccc(OC)c5[nH]c34)cc1)CC2 | SARS-CoV-2 | viral replication, anti-nucleoprotein immunostaining | Vero E6 |  | IC50 | 0.617 µM
O=C(CSc1nc2c(c(=O)[nH]1)CCCC2)NNC(=O)c1ccc([N+](=O)[O-])cc1 | SARS-CoV-2 | viral cytopathic effect | Vero E6, NRC-03-nhCoV |  | IC50 | 38.5 µM
NCCCC(N)(C(=O)O)C(F)F (stereo not shown) | SARS-CoV-2 | viral replication |  |  | IC50 | 230 µM
Cc1c(CN2CCC(Nc3ncnc4sc(CC(F)(F)F)cc34)CC2)ccc2c1cc(C#N)n2Cc1cn[nH]c1 | SARS-CoV-2 | viral replication | Huh-7 |  | IC50 | > 2 µM
O=C(Nc1ccc([N+](=O)[O-])cc1Cl)c1cc(Cl)ccc1O | SARS-CoV-2 | viral replication | Vero E6 |  | IC50 | < 1 µM
C[C@H](Nc1ncnc2nc[nH]c12)c1cc2cccc(Cl)c2c(=O)n1-c1ccccc1 | SARS-CoV-2 | viral replication | Huh-7 |  | IC50 | > 2 µM
CCC[C@H](NC(=O)[C@@H]1[C@H]2CCC[C@H]2CN1C(=O)[C@@H](NC(=O)[C@@H](NC(=O)c1cnccn1)C1CCCCC1)C(C)(C)C)C(=O)C(=O)NC1CC1 | SARS-CoV-2 | viral replication, nucleoprotein immunofluorescence | Vero E6 |  | IC50 | > 50 µM
O=C(CN1CCC(CN2Cc3ccccc3C2=O)CC1)c1ccc(F)cc1 | SARS-CoV-2 | viral replication | Vero E6 | inactive set pIC50 4 | IC50 | > 10 µM
CNC(=O)[C@@H](NC(=O)[C@H](CC(C)C)[C@H](O)C(=O)NO)C(C)(C)C |  | prothrombin time | human platelet-poor plasma | 100 µM, added: AP venom | inhibition | 18.5% and 18%
CC(C)(C)c1cnc(CSc2cnc(NC(=O)C3CCN(CC(=O)NCCOCCOCCOCCNc4cccc5c4C(=O)N(C4CCC(=O)NC4=O)C5=O)CC3)s2)o1 (stereo not shown) | SARS-CoV-2 | viral replication |  |  | IC50 | < 0.16 µM
CCCC(=O)Nc1ccc(OCC(O)CNC(C)C)c(C(C)=O)c1 (stereo not shown) | SARS-CoV-2 | viral replication | Huh-7 |  | IC50 | > 2 µM
CN1CC[C@@]23CCCC[C@@H]2[C@@H]1Cc1ccc(O)cc13 | SARS-CoV-2 | viral replication, anti-nucleoprotein immunostaining | Vero E6 |  | IC50 | > 10 µM
O=C(c1ccccc1)c1ccc2n1CCC2C(=O)O (stereo not shown) | SARS-CoV-2 | viral replication | Huh-7 |  | IC50 | > 2 µM
O=C(CSc1nc2c(c(=O)[nH]1)CCCC2)Nc1ccccc1C(=O)O | SARS-CoV-2 | viral cytopathic effect | Vero E6, NRC-03-nhCoV |  | IC50 | 174 µM
CC(=O)Nc1nc(C)c(-c2ccc(Cl)c(S(=O)(=O)NCCO)c2)s1 | SARS-CoV-2 | viral cytopathic effect | Vero E6 | 3 days | IC50 | ~0.00551 µM
OCCOc1ccc(/C(=C(/CCCl)c2ccccc2)c2ccccc2)cc1 | SARS-CoV-2 | viral replication | Huh-7 |  | IC50 | > 2 µM
O=C(CSc1nc2c(c(=O)[nH]1)CCCC2)NNC(=O)c1ccccc1 | SARS-CoV-2 | viral cytopathic effect | Vero E6, NRC-03-nhCoV |  | IC50 | 140 µM
Nc1ncnc2c([C@@H]3N[C@H](CO)[C@@H](O)[C@H]3O)c[nH]c12 | Lassa mammarenavirus | viral replication | HeLa, Josiah | 100 µM | inhibition | 81.6%

Some of these lines once more:
Molecule | tested on | assay | system | setting | endpoint | result
Cc1c(CN2CCC(Nc3ncnc4sc(CC(F)(F)F)cc34)CC2)ccc2c1cc(C#N)n2Cc1cn[nH]c1 | SARS-CoV-2 | viral replication | Huh-7 |  | IC50 | > 2 µM
O=C(Nc1ccc([N+](=O)[O-])cc1Cl)c1cc(Cl)ccc1O | SARS-CoV-2 | viral replication | Vero E6 |  | IC50 | < 1 µM
C[C@H](Nc1ncnc2nc[nH]c12)c1cc2cccc(Cl)c2c(=O)n1-c1ccccc1 | SARS-CoV-2 | viral replication | Huh-7 |  | IC50 | > 2 µM
CCC[C@H](NC(=O)[C@@H]1[C@H]2CCC[C@H]2CN1C(=O)[C@@H](NC(=O)[C@@H](NC(=O)c1cnccn1)C1CCCCC1)C(C)(C)C)C(=O)C(=O)NC1CC1 | SARS-CoV-2 | viral replication, nucleoprotein immunofluorescence | Vero E6 |  | IC50 | > 50 µM
